Assay results gathered from unrelated publications.
Every numbered part comes from another study and shows a few of its results, in no order.

Set 1
Target: Histone acetyltransferase KAT6A, winged helix 2, GST fusion (KAT6A, Homo sapiens, UniProt Q92794, residues 85-181)
Technique: protein binding microarray
Molecule type: double-stranded DNA, one strand shown
Matrix: in vitro
Tested at: not given
Notes: 8-mer, flanks averaged, mean of 2 arrays, mostly near background
Reference: not given
Reading: higher = stronger binding
Residues (chain): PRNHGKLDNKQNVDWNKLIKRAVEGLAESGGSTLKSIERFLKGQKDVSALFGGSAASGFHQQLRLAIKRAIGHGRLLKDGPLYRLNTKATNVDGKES
Oligonucleotide	E-score
AAGGACTT	-0.0504
AGTTATGG	-0.0641
CTAGAGAA	-0.0726
CCTCCGCG	0.114
CTCGTATA	-0.205
GGAAACGA	0.0651
AGGGGTGC	-0.132
ACAAACAA	0.0437
ACGACGCG	-0.0091
CTAGCCTC	-0.178
AGTGCTAC	-0.0781
CTGCGCAA	0.0544
TACAGCGA	-0.17
GTTGATAA	0.152
CTCTCAAA	0.107
AAACACCA	-0.111
CTTCTGTC	0.00637
GGCATGGA	0.0934
AAACCCAT	-0.0383
AGAGATGA	-0.0371
CTGATGAC	-0.0955
GTTCAGTA	0.00702

Set 2
Target: RING finger protein unkempt homolog, zinc fingers 1-6, GST-SBP tag (UNK, Homo sapiens, UniProt Q9C0B0, residues 30-357)
Technique: RNA Bind-n-Seq
Molecule type: RNA
Matrix: in vitro
Tested at: not given
Notes: RNA with constant flanks, human and mouse sites, ends assumed
Reference: input RNA pool
Reading: higher = stronger binding
Residues (chain): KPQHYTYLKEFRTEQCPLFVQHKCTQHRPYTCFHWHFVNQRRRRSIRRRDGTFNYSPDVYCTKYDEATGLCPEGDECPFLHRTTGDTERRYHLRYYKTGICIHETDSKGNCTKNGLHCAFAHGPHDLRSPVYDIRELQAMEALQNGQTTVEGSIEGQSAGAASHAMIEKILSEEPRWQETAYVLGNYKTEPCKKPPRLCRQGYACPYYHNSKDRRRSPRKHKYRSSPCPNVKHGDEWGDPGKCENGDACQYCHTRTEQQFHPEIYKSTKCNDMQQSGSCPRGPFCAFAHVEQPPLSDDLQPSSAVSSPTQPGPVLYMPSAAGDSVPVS
Oligonucleotide	bound/input enrichment
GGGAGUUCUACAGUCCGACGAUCAUCCUCUCUGGAACAUCAGACCUGCUCCUUACCUUCGAUGAGGCUGAGGUCCGUAAAAUUAUUAGAGUUUGCAAAGGAAUUUUGGAAUAUCUUACAGUGGCAGAGGUGGUGGAGACUAUGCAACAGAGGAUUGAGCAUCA	0.625 ratio
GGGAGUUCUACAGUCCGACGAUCAGGACGCCAAGAGUUUUAAGGAAUAUAGGGGGAUUAAAGUAUGGAGAUACAGAAGAAACCACUAAGUCUGAUGUCCAAAUGGGCACACUGUCAGUUUUGUUUCCCUUCAGUUGUUUGAUGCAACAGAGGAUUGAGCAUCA	0.357 ratio
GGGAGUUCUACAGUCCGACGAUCAACCAUCCAGGCCAAAUAAGCGCCGGCUAUGCCCCUGUAUUGGAUUGCCACACGGCUCACAUUGCAUGCAAGUUUGCUGAGCUGAAGGAAAAGAUUGAUCGCCGUUCUGGUAAAAAGCUGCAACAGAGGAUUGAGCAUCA	0.305 ratio
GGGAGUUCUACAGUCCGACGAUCGCUGGAAAUAGGGCACAGAUCCAGACUGUGAUAGAUGCUAACAUGUUCCCAGCUCUUAUUAGUAUAUUGCAAACAGCAGAGUUCCGGACAAGGAAGGAAGCUGCUUGGGCCAUCACAAAUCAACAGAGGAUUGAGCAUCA	1.07 ratio
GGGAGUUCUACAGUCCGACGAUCUGGGUGAUGGAGGAAAUGAGAGAGGAAUGCUCUUGAAAGGUGGUCUGUGGAUCUGUCUGAAUAGAAAGAGCACAGUAAGUAUGCAUUGCCGGAGAAAACGUCCUUGAAGCUGCUUGUCUCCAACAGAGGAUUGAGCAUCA	0.251 ratio
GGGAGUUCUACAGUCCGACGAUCCCUGGGAACAGCACCCAGUACAACAUCCUGGAAGGGUUGGAAAAGCUCAAACAUCUAGACUUUCUGAAGCAGCCACUGGCCACCCAAAAGGAUCUCACUGGCCAGGUGCCCACUCCUGUGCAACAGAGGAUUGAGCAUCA	0.4 ratio
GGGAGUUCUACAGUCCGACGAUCAGGGUUGGCAUGAGGAGGGGGAAGCUUUUUUGAAUCGCUUUUUGAUCACAUAAUCUGCCAUUUUAAGAGUAAGAUUUGCUUUAUGGAAAUCAAUUCAUUAAUAAAAAAUGAUAUUCAAGUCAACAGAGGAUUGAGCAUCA	0.25 ratio
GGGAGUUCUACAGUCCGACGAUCGGACCCCGUACCCCUCAUAGGGUGCCGGGUCCCUGGGGCCCUCCUGAGCCUCUCCUGCUCUACAGGGCAGCCCCGCCAGCCUACGGAAGGGGGGGCGAGCUCCACCGAGGGUCCUUGUACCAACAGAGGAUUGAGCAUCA	0.0998 ratio

Set 3
Target: RNA binding protein fox-1 homolog 2, RRM domain, GST-SBP tag (RBFOX2, Homo sapiens, UniProt O43251-10, residues 100-194)
Technique: RNA Bind-n-Seq
Molecule type: RNA
Matrix: in vitro
Tested at: 365 nM
Notes: natural RNA segment, single round, ends assumed
Reference: no-protein control
Reading: higher = stronger binding
Construct (chain): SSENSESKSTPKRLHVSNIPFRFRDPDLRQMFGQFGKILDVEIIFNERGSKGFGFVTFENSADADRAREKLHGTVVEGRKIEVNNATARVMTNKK
Oligonucleotide	RBNS enrichment (R)
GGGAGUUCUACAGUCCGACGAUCUAUCUCUAAUACUUGGCAACAUAAGGUGCUUGCAAACACUAAGGCUGCCCCCUGCAAAGUAAACUCCAAGACAAACCAAACCCAAGGUACAAAUGUGUUACACAUAAAUGUGGAAUUCUCGGGUGCCAA	0.278
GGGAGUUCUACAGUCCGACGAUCUUGUCAGCGAGGCUCCCUGCCACCUAUACUACCAGGUGCUUUGUAGCAGAGAGAGCCCAUCUGCAGAAACCCAGUUGUACUACCUGGGCUUGCUUAAUUUCUACAGGCUGUGGAAUUCUCGGGUGCCAA	0.325
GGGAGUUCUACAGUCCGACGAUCCACCAGCUCAGCUGAGGCAUCCCAGCCAGGCAGGACCCUUGAGGGCCGCUGUAUCCAUGGUGAUGGGGUGAGGUUUUGGCCAAAAGGCCAAAGACUGGUGGUGGGUCCACUGGAAUUCUCGGGUGCCAA	0.359
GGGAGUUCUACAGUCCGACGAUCUAAAUUGUCAUAAACAUUCUAGGAAGUUCAAGAAAAUGAUGCAGUACCCAGCACAUGAAAGACCUACAACAUGUGCUUGCCAAAGGAAUGUUAGAAUCUGCUCAUGUGUGUGGAAUUCUCGGGUGCCAA	1.74
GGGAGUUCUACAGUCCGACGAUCGCCCCUGAGAGGUGGGGGCCUCUCCAGGGCACAUCUGGAGUUCUUCUCCAGCUUACCCUAGGGUGACCAAGUAGGGCCUGUCACACCAGGGUGGCGCAGCUUUCUGUGUGUGGAAUUCUCGGGUGCCAA	0.528
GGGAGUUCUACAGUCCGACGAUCGGAGACUCAGCCUGGCUAUUCUUGAGCAUGGACAGUUGUUUCUCAAGGUGUCUUCUGACUCUCCUUCUGCCUCCCCACUAUACACUGUGGUUUGAAAAAUAUUUGCACUAUGGAAUUCUCGGGUGCCAA	1.22
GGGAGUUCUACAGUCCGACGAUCCUUCACUGGGUUUCUCAACCGUGGCUUUUCACCGCAGCUUGUCUGAAACUCUUAGCCUGCAGAAUUUAAGACAAUGGCAGUUUUUAUCGUGAUUUGCCUUUGAACUUGGUUGGAAUUCUCGGGUGCCAA	6.31
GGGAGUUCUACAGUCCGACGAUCGGAGAACCUCUAGCACAGGCGGGCCCAGACCGGCUUCUCGGCUUGGAUCCUGGGCUGGGUGGCCCCUGUCUCGGGGCUUGCCCCACUCUGCCUGCCUGCUGUUGGUCCUCUGGAAUUCUCGGGUGCCAA	0.285
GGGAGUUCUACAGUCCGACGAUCAUUUGUUUCAACUGAAUUUUGGUGGUGUCAGUGCCAUUAUCUAGCACCCUGAUUUUUUUUUUUUUACUAUAACCAGGGUUUCAUUCUGUCUUUUUCCACUGAAGUGUGACUGGAAUUCUCGGGUGCCAA	0.575

Set 4
Target: Ras GTPase-activating protein-binding protein 1, C-terminal RGG region (G3BP1, Homo sapiens, UniProt Q13283)
Sequence of UniProt Q13283 (whole entry, looked up): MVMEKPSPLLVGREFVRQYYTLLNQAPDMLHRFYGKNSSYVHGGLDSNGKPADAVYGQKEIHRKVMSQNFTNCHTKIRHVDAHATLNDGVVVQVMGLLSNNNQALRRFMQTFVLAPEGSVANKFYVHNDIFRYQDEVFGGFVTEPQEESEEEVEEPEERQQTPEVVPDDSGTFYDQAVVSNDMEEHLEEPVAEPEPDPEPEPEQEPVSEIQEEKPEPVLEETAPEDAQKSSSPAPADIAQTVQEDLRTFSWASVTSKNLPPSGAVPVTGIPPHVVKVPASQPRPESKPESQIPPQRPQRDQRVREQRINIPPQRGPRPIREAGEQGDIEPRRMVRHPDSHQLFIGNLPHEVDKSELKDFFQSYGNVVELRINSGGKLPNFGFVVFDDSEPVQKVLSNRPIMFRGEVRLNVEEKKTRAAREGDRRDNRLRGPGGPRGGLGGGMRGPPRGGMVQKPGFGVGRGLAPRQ
Technique: RNA Bind-n-Seq
Molecule type: RNA
Matrix: in vitro
Tested at: 1 µM
Notes: whole 134-nt RNA, ends assumed
With: 150 mM KCl
Reference: input library
Reading: higher = stronger binding
Oligonucleotide	log2 enrichment
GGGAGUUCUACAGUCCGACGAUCAAGUCCUGUGCUACACAUCGUAUGUACCGAAUCGGGAGGGUUUUUUUGGGAAAGGGAAAGUAUUAUGUUACGCCGUUCGGAUCUGCACUUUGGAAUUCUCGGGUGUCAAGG	-0.118
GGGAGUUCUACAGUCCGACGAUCGCAGGAAAAAAAAACAAAUGGAAAUGCUUCGGAUAGUGGCAGGGGUGGGGGUUGCUAAGGAAAGGGUGGGAUGGGAGUGGGUAAAGAGUUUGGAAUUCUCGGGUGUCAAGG	1.85
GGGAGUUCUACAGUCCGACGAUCAAGUCCUGUGCUACACAUCGUAUGUACCGAAUCGGUUUUUGGAAAGGUUUUUUUGGAAAGUAUUAUGUUACGCCGUUCGGAUCUGCACUUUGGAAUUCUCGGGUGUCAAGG	-2.16
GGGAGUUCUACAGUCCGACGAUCCUGUGCUACACAUCGUAUGUACCGAAUCGGGAAAAAAAGGAAAAAAAGGGGAAAAAAAGGGAAAGUAUUAUGUUACGCCGUUCGGAUCUGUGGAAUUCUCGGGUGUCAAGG	-1.58
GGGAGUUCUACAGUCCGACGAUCCUCAAGUCCUGUGCUACACAUCGUAUGUACCGAAUCGGGAAAGGGUGGGUGGGAAAGUAUUAUGUUACGCCGUUCGGAUCUGCACUUCCAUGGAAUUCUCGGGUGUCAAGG	1.69
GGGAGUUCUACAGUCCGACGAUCCAAGUCCUGUGCUACACAUCGUAUGUACCGAAUCGGCCCCGGGCCCCGGGCCCCGGAAAGUAUUAUGUUACGCCGUUCGGAUCUGCACUUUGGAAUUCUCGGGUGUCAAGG	-1.99
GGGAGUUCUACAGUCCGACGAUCGCAGGAAGUAAAAACAAAUGGAAAUGCUUCGGAUAGUGGCAGGGGUGGGGGUUGCUAAGGAAAGGGUGGGAUGGGAAAAGGUAAAGAGUUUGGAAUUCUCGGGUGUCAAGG	2.07
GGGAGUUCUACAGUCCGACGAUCUGGCCCUGGUGGCAUGCGGGGAGGAAGAGGUGGCCUCGUGGAUCGUGGUGGUCCCGGUGGAAUGUUCAGAGGUGGCCGUGGUGGAGACAGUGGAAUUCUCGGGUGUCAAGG	2.15
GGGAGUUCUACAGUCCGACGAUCCCUUUUUGAGAAGGCCGGACCCAUUUGGGAUCUACGUCUUAUGAUGGAUCCACUGUCCGGUCAGAAUAGAGGGUAUGCAUUUAUCACCUUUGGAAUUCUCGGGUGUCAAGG	-1.85
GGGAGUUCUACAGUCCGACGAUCAGUCCUGUGCUACACAUCGUAUGUACCGAAUCGGGGAAAAAGGGGAAAGGGGUGGGGAAAGUAUUAUGUUACGCCGUUCGGAUCUGCACUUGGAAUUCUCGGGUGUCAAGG	1.98

For quick reference, copied from above (set 2):
Oligonucleotide	bound/input enrichment
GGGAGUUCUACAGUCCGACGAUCAGGACGCCAAGAGUUUUAAGGAAUAUAGGGGGAUUAAAGUAUGGAGAUACAGAAGAAACCACUAAGUCUGAUGUCCAAAUGGGCACACUGUCAGUUUUGUUUCCCUUCAGUUGUUUGAUGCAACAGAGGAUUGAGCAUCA	0.357 ratio
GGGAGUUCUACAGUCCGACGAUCAGGGUUGGCAUGAGGAGGGGGAAGCUUUUUUGAAUCGCUUUUUGAUCACAUAAUCUGCCAUUUUAAGAGUAAGAUUUGCUUUAUGGAAAUCAAUUCAUUAAUAAAAAAUGAUAUUCAAGUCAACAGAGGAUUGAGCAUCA	0.25 ratio
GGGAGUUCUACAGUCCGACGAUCAACCAUCCAGGCCAAAUAAGCGCCGGCUAUGCCCCUGUAUUGGAUUGCCACACGGCUCACAUUGCAUGCAAGUUUGCUGAGCUGAAGGAAAAGAUUGAUCGCCGUUCUGGUAAAAAGCUGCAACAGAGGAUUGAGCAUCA	0.305 ratio
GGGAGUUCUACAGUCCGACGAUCGGACCCCGUACCCCUCAUAGGGUGCCGGGUCCCUGGGGCCCUCCUGAGCCUCUCCUGCUCUACAGGGCAGCCCCGCCAGCCUACGGAAGGGGGGGCGAGCUCCACCGAGGGUCCUUGUACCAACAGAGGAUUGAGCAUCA	0.0998 ratio
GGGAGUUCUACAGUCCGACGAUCGCUGGAAAUAGGGCACAGAUCCAGACUGUGAUAGAUGCUAACAUGUUCCCAGCUCUUAUUAGUAUAUUGCAAACAGCAGAGUUCCGGACAAGGAAGGAAGCUGCUUGGGCCAUCACAAAUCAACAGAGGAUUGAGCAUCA	1.07 ratio
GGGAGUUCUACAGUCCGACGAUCAUCCUCUCUGGAACAUCAGACCUGCUCCUUACCUUCGAUGAGGCUGAGGUCCGUAAAAUUAUUAGAGUUUGCAAAGGAAUUUUGGAAUAUCUUACAGUGGCAGAGGUGGUGGAGACUAUGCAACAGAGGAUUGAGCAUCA	0.625 ratio
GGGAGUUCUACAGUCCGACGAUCCCUGGGAACAGCACCCAGUACAACAUCCUGGAAGGGUUGGAAAAGCUCAAACAUCUAGACUUUCUGAAGCAGCCACUGGCCACCCAAAAGGAUCUCACUGGCCAGGUGCCCACUCCUGUGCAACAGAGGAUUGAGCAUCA	0.4 ratio
